Results gathered from unrelated publications.
Numbered parts are unrelated; each lists some results of a single study. Positions count from the first letter of the parent shown.

Sample 1
Target: ABI1, truncated, D143A, DHFR fusion (Arabidopsis thaliana)
Technique: DHFR PCA, deep sequencing
Sample: yeast
Notes: methotrexate growth selection, single substitutions
Added: (+)-ABA 0.032 µM
Reference: wild-type fitted maximum
Direction: higher = stronger binding
Parent: PYL1, truncated, DHFR fusion (Arabidopsis thaliana); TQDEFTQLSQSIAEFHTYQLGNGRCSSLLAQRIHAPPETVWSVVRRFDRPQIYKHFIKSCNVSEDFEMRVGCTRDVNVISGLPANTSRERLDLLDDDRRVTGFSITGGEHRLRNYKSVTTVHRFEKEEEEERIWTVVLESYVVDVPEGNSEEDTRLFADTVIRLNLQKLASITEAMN; partner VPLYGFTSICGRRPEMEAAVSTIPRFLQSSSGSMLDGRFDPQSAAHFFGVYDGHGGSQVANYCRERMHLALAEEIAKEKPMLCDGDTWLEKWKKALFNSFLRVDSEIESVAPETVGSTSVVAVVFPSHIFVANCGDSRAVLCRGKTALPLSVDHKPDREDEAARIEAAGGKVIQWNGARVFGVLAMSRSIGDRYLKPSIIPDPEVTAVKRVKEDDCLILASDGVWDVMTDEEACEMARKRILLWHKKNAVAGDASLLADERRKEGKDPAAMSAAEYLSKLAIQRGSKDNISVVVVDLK
`A175D`: “relative binding score” 16.8%.
`R155P`: “relative binding score” -0.655%.
Under “relative binding score”, `G21I` is recorded as 4.21%.
For `Y115P`, “relative binding score” read -3.68%.
For `F103Q`, “relative binding score” read 0.48%.
Under “relative binding score”, `I105Y` is recorded as -9.92%.
`H122W` — result for “relative binding score”: -5.62%.
`R132V` — result for “relative binding score”: 24%.
For `P146F`, “relative binding score” read -3.67%.
Under “relative binding score”, `K116Q` is recorded as 25.5%.
`S140W` — result for “relative binding score”: 2.11%.
For `E125C`, “relative binding score” read 39.9%.
Under “relative binding score”, `L28K` is recorded as 2.07%.
For `L8Y`, “relative binding score” read 17.4%.

Sample 2
Target: Sal-like protein 4, full length isoform B (SALL4, Homo sapiens, UniProt Q9UJQ4-2, residues 1-616)
Technique: universal PBM
Molecule type: double-stranded DNA, one strand shown
Sample: in vitro
Tested at: not given
Notes: 8-mer, flanks averaged, mean of replicates
Direction: higher = stronger binding
Construct (chain): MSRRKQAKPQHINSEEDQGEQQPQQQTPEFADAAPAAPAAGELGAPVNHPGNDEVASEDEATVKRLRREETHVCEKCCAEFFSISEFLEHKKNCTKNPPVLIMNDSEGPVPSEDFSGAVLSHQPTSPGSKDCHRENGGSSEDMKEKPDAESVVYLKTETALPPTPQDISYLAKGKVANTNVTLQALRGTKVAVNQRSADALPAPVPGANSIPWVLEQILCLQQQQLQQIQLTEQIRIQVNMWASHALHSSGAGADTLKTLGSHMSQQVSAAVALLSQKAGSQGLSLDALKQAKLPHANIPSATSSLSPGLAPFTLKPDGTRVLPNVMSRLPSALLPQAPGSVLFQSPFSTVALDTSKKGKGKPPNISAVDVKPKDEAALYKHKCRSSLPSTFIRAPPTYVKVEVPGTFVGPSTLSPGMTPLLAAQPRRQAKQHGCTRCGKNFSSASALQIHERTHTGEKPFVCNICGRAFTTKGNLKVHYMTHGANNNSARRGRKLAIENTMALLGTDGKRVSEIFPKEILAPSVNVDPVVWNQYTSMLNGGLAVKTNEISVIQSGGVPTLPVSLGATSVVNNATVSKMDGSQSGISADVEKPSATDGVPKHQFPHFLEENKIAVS
`ATTCCGAA` gave an E-score of 0.168.
`AATCTGTG` gave an E-score of 0.112.
With `GCCGCGTA` the E-score was -0.156.
The E-score of `AATTGATG` is reported as 0.31.
The E-score of `ACTCACCT` is reported as -0.187.
For `GCCCACGA`, the E-score was -0.237.
With `ATTTCATG` the E-score was 0.16.
With `ACGTTCTA` the E-score was 0.0447.
`ATCTACGA` has an E-score of 0.12.
`GGTTCACA` has an E-score of 0.0407.
`AAGGAAGG` gave an E-score of -0.0658.
`CATAAAAG` has an E-score of 0.304.
`ACGGAATG` gave an E-score of -0.135.
`CGTGAGAA` has an E-score of -0.0889.
The E-score of `AAATCGGC` is reported as -0.153.
For `CTGCGCAG`, the E-score was -0.161.
The E-score of `CAAAGATG` is reported as 0.0526.
The E-score of `ATGTCTTC` is reported as 0.103.
`GAGGTTCA` gave an E-score of -0.0186.
The E-score of `TATGCTCA` is reported as 0.106.
`CGGGCAAA` gave an E-score of -0.194.
`ACCGGGCA` gave an E-score of -0.338.
`GGGGAGTA` has an E-score of -0.128.
For `CCCTCCTC`, the E-score was -0.255.
The E-score of `GTAAGGCA` is reported as 0.0815.

Sample 3
Target: Ras GTPase-activating protein-binding protein 1, full length (G3BP1, Homo sapiens, UniProt Q13283)
Sequence of UniProt Q13283 (whole entry, looked up): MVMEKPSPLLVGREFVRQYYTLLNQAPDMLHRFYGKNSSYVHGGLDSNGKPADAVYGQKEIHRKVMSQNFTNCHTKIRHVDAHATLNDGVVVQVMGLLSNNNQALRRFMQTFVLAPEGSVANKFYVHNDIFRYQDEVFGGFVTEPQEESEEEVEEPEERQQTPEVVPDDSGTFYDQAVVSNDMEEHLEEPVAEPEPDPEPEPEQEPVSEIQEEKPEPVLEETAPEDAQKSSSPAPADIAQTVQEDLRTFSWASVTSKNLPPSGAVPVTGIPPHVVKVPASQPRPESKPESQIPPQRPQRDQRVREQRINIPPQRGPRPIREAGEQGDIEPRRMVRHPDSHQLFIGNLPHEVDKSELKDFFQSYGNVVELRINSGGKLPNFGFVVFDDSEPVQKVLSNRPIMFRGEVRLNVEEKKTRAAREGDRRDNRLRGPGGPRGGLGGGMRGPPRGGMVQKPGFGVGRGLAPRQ
Technique: RNA Bind-n-Seq
Molecule type: RNA
Sample: in vitro
Tested at: 200 nM
Notes: whole 134-nt RNA, ends assumed
Added: 150 mM KCl
Reference: input library
Direction: higher = stronger binding
`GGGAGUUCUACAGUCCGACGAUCUUGUGAGCUGCAAGCUAGGCUGCAGGCCCAGGAAGAACAGCAUCAGGAAGUCCAGAAGGCAAAAGAAGCAGACAUAGAGAAGCUGAACCAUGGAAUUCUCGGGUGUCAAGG` has a log2 enrichment of -1.1.
`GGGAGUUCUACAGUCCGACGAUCAGUCCUGUGCUACACAUCGUAUGUACCGAAUCGGGGAAAAGGGAAAAGGGAAAAGGGGAAAGUAUUAUGUUACGCCGUUCGGAUCUGCACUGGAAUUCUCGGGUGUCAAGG` gave a log2 enrichment of 0.414.
`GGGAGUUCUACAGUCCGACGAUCUCCUGUGCUACACAUCGUAUGUACCGAAUCGGGAAAAAAGGAAAAAAGGAAAAAAGGGGAAAGUAUUAUGUUACGCCGUUCGGAUCUGCAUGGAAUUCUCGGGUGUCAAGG` gave a log2 enrichment of -0.668.
With `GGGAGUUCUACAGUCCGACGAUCACCAUGCAGGUGGGCAUCUUUGGGAAGUGGGGCAAGGGGGGGAUAGGGAGGGGGGUAACACUUUGGAAACAGGUGGUCCCAGGUCGUUUCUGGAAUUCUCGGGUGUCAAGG` the log2 enrichment was 1.26.
`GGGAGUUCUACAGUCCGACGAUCUCCUGUGCUACACAUCGUAUGUACCGAAUCGGAAAAAAGGGGAAAAAAGGGAAAAAAGGGAAAGUAUUAUGUUACGCCGUUCGGAUCUGCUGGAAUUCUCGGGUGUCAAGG` has a log2 enrichment of -0.437.
`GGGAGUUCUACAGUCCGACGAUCGCAGGAAGUAAAAACAAAUGGAAAUGCUUCGGAUAGUGGCAGGGGAAAGGGUUGCUAAGGAAAGGGUGGGAUGGGAGUGGGUAAAGAGUUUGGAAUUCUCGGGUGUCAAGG` gave a log2 enrichment of 1.04.
`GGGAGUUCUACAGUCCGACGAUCAAGUCCUGUGCUACACAUCGUAUGUACCGAAUCGGGGUUUUGGUUUUGGUUUUGGGAAAGUAUUAUGUUACGCCGUUCGGAUCUGCACUUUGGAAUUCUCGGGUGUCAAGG` has a log2 enrichment of -1.01.
The log2 enrichment of `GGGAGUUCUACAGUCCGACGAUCUCCUCAAGUCCUGUGCUACACAUCGUAUGUACCGAAUCGGAGGUGGUUUGGAAAGUAUUAUGUUACGCCGUUCGGAUCUGCACUUCCAGCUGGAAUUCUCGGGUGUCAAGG` is reported as -0.742.
`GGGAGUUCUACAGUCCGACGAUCCCCAUGCAGGUGGGCAUCUUUGGGAAGUGGGGCAAGGGGGGGAUAGGGAGGGGGGUAACACUUUGGGAACAGGUGGUCCCAGGUCGUUUCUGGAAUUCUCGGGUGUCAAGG` gave a log2 enrichment of 0.971.
With `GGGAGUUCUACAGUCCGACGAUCUGGCCCUGGUGGCAUGCGGGGAGGAAGAGGUGGCCUCAUGGAUCGUCGUGGUCCCGGUGGAAUGUUCAGAGGUGGCCGUGGUGGAGACAGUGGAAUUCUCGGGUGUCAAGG` the log2 enrichment was 0.217.

Sample 4
Target: Histone acetyltransferase KAT6A, both winged helices, GST fusion (KAT6A, Homo sapiens, UniProt Q92794, residues 1-181)
Technique: protein binding microarray
Molecule type: double-stranded DNA, one strand shown
Sample: in vitro
Tested at: not given
Notes: 8-mer, flanks averaged, mean of 2 arrays, mostly near background
Reference: not given
Direction: higher = stronger binding
Residues (chain): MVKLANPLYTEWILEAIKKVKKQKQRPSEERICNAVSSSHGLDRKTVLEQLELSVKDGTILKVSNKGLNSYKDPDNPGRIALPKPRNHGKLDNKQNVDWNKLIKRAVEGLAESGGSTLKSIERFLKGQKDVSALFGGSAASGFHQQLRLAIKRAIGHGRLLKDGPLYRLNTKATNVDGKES
The E-score of `CTATTATA` is reported as -0.0541.
For `CAAGTACA`, the E-score was -0.101.
`ATGTGTTA` gave an E-score of -0.119.
The E-score of `GTACTCAC` is reported as -0.152.
`AATTGCCT` has an E-score of -0.0454.
`CTCTAAAA` gave an E-score of -0.0595.
The E-score of `GTCTTCTA` is reported as -0.0992.
`CCGGGGCG` has an E-score of 0.216.
`ATTTGGTC` gave an E-score of -0.08.
With `CTCGTCGC` the E-score was 0.0736.
With `CTCCCGCC` the E-score was 0.194.
With `GCAACTTA` the E-score was 0.00243.
`AACATGAA` has an E-score of -0.0174.
`CCGGACGC` has an E-score of 0.286.
`ATTGAATA` has an E-score of -0.0271.
With `CGTGTGAA` the E-score was -0.00758.
The E-score of `AACTTACT` is reported as -0.236.
`ACCACGCG` has an E-score of 0.269.
`GAGAGCTA` has an E-score of -0.0831.
For `TAAAAGCA`, the E-score was -0.0671.

Sample 5
Target: CCNF, cyclin fold, Cln2 fusion (human)
Technique: yeast growth competition, sequencing
Sample: yeast
Notes: strong parent motif
Reference: not given
Direction: higher = stronger binding
Parent: SCAPER docking peptide (human); SNARRSLNFGGST
Under “normalised enrichment score”, `G10H` is recorded as 5.82.
Under “normalised enrichment score”, `A3Y` is recorded as 4.51.
`L7T` — result for “normalised enrichment score”: 1.22.
Under “normalised enrichment score”, `L7C` is recorded as 0.784.
Under “normalised enrichment score”, `A3P` is recorded as 7.63.
Under “normalised enrichment score”, `S6D` is recorded as 1.09.
Under “normalised enrichment score”, `F9G` is recorded as 0.255.
For `L7H`, “normalised enrichment score” read 1.03.
`A3C` — result for “normalised enrichment score”: 7.58.
`R5A` — result for “normalised enrichment score”: 0.551.
Under “normalised enrichment score”, `A3F` is recorded as 4.17.
`S6L`: “normalised enrichment score” 5.45.
`S12M`: “normalised enrichment score” 6.
`R5C`: “normalised enrichment score” 0.514.
For `N8G`, “normalised enrichment score” read 4.07.

Excerpt of the above (sample 3):
`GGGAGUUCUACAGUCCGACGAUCUUGUGAGCUGCAAGCUAGGCUGCAGGCCCAGGAAGAACAGCAUCAGGAAGUCCAGAAGGCAAAAGAAGCAGACAUAGAGAAGCUGAACCAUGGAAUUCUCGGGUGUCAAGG` has a log2 enrichment of -1.1.
`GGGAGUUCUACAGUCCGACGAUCAGUCCUGUGCUACACAUCGUAUGUACCGAAUCGGGGAAAAGGGAAAAGGGAAAAGGGGAAAGUAUUAUGUUACGCCGUUCGGAUCUGCACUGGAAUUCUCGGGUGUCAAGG` gave a log2 enrichment of 0.414.
`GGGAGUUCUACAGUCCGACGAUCUCCUGUGCUACACAUCGUAUGUACCGAAUCGGGAAAAAAGGAAAAAAGGAAAAAAGGGGAAAGUAUUAUGUUACGCCGUUCGGAUCUGCAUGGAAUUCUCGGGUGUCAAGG` gave a log2 enrichment of -0.668.
With `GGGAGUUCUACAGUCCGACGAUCACCAUGCAGGUGGGCAUCUUUGGGAAGUGGGGCAAGGGGGGGAUAGGGAGGGGGGUAACACUUUGGAAACAGGUGGUCCCAGGUCGUUUCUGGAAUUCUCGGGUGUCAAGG` the log2 enrichment was 1.26.
`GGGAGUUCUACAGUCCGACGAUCUCCUGUGCUACACAUCGUAUGUACCGAAUCGGAAAAAAGGGGAAAAAAGGGAAAAAAGGGAAAGUAUUAUGUUACGCCGUUCGGAUCUGCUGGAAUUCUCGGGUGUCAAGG` has a log2 enrichment of -0.437.
`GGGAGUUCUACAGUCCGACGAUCGCAGGAAGUAAAAACAAAUGGAAAUGCUUCGGAUAGUGGCAGGGGAAAGGGUUGCUAAGGAAAGGGUGGGAUGGGAGUGGGUAAAGAGUUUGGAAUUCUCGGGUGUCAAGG` gave a log2 enrichment of 1.04.
`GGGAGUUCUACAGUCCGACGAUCAAGUCCUGUGCUACACAUCGUAUGUACCGAAUCGGGGUUUUGGUUUUGGUUUUGGGAAAGUAUUAUGUUACGCCGUUCGGAUCUGCACUUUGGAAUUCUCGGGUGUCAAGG` has a log2 enrichment of -1.01.
The log2 enrichment of `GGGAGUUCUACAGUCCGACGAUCUCCUCAAGUCCUGUGCUACACAUCGUAUGUACCGAAUCGGAGGUGGUUUGGAAAGUAUUAUGUUACGCCGUUCGGAUCUGCACUUCCAGCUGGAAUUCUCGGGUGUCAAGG` is reported as -0.742.
